{"data": "Published values of several laboratories", "note": "No end group written: not given here."}
{"Molecule": "COc1ccccc1-c1cc(-c2cccc(Br)c2)nc(N)c1C#N", "cell line": "HT-29", "test": "cell growth or viability", "setting": "50 µM", "inhibition [%]": "≤ 50"}
{"Molecule": "CCn1c(C)c(/N=N/c2ccc(Cl)cc2)s/c1=N/N=C(\\C)c1ccccn1", "cell line": "MCF7", "test": "cell growth or viability, SRB", "setting": "100 µg/mL, 48 h", "inhibition [%]": 53.7}
{"Molecule": "CCCc1ccc(S(=O)(=O)Oc2ccc(NC(=O)c3ccc(C)cc3)cc2)cc1", "cell line": "HeLa", "test": "cell growth or viability, MTT", "setting": "100 µM, 24 h", "inhibition [%]": 49.2}
{"Molecule": "CC(C)Oc1ccc(S(=O)(=O)c2ccc(Oc3cc(OCC(N)=O)c(C(=O)C(Cl)Cl)cc3[N+](=O)[O-])cc2)cc1", "cell line": "NCI-H1299", "test": "cell growth or viability, MTT", "setting": "2.5 µM", "inhibition [%]": "> 95"}
{"Molecule": "CCN1C(=O)C(C)S/C1=N/N=C(\\C)c1ccccn1 (stereo not shown)", "cell line": "MCF7", "test": "cell growth or viability, SRB", "setting": "100 µg/mL, 48 h", "inhibition [%]": 64.7}
{"Molecule": "CCN(c1nc(N)c(C(=O)N=C(N)N)nc1Cl)C(C)C", "cell line": "MDCK", "test": "nanoparticle endocytosis", "setting": "40 µM, 30 min", "inhibition [%]": 20.9}
{"Molecule": "GIINTLQKYYCRVRGGRCAVLSCLPKEEQIGKCSTRGRKCCRRKK (human beta-defensin 3; not fully specified; ends and bridges not checked; sequence looked up)", "cell line": "LAD2", "test": "degranulation, agonist", "test system": "peptide", "setting": "100 nM, with: Pseudomonas aeruginosa LPS 10 µg/mL, 5 min preincubation", "inhibition [%]": "~50"}
{"Molecule": "Cc1ccc(C(=O)Nc2ccc(OS(=O)(=O)c3ccc(-c4ccccc4)cc3)cc2)cc1", "cell line": "HeLa", "test": "cell growth or viability, MTT", "setting": "100 µM, 24 h", "inhibition [%]": 48.2}
{"Molecule": "COc1cc2ncnc(Nc3ccc(Cl)cc3F)c2cc1OC", "cell line": "A549 EGFR reporter cells", "test": "EGFR-induced granule formation", "setting": "10 µM, with: 500 nM EGF", "how to read": "negative means activation", "inhibition [%]": 97}
{"Molecule": "O=C(Nc1ccc(OS(=O)(=O)c2ccc(OC(F)(F)F)cc2)cc1)c1ccccc1", "cell line": "HeLa", "test": "cell growth or viability, MTT", "setting": "100 µM, 24 h", "inhibition [%]": 49.7}
{"Molecule": "CC(=O)C1S/C(=N/N=C(\\C)c2ccccn2)NC1=O (stereo not shown)", "cell line": "MCF7", "test": "cell growth or viability, SRB", "setting": "100 µg/mL, 48 h", "inhibition [%]": 66.2}
{"Molecule": "O=C(Nc1ccc(OS(=O)(=O)c2ccc(-c3ccccc3)cc2)cc1)c1ccccc1", "cell line": "HeLa", "test": "cell growth or viability, MTT", "setting": "100 µM, 24 h", "inhibition [%]": 5.3}
{"Molecule": "C/C(=N\\N=c1/[nH]c(C)cs1)c1ccccn1", "cell line": "MCF7", "test": "cell growth or viability, SRB", "setting": "100 µg/mL, 48 h", "inhibition [%]": 41.2}
{"note": "A few entries again:"}
{"Molecule": "CCCc1ccc(S(=O)(=O)Oc2ccc(NC(=O)c3ccc(C)cc3)cc2)cc1", "cell line": "HeLa", "test": "cell growth or viability, MTT", "setting": "100 µM, 24 h", "inhibition [%]": 49.2}
{"Molecule": "GIINTLQKYYCRVRGGRCAVLSCLPKEEQIGKCSTRGRKCCRRKK (human beta-defensin 3; not fully specified; ends and bridges not checked; sequence looked up)", "cell line": "LAD2", "test": "degranulation, agonist", "test system": "peptide", "setting": "100 nM, with: Pseudomonas aeruginosa LPS 10 µg/mL, 5 min preincubation", "inhibition [%]": "~50"}
